Measured values gathered from unrelated publications.
A part holds a random share of what one study measured. Changes are numbered by the printed parent chain.

Series 1 — method: universal PBM; molecule type: double-stranded DNA, one strand shown; matrix: in vitro; concentration: not given; reading: higher = stronger binding; measurement: E-score
Target: Sal-like protein 4, full length isoform B (SALL4, Homo sapiens, UniProt Q9UJQ4-2, residues 1-616)
Setting: 8-mer, flanks averaged, mean of replicates
GACTAGTC: -0.184
AGCTTGAT: 0.0711
AGTCAGCA: 0.00573
CGTGGTGC: -0.259
CTCCAGTC: -0.122
TCAGCCAA: -0.0434
GGCCGTAC: -0.161
CCTAGTAG: -0.147
AGCTTCTG: -0.207
AGGTTAGA: -0.108
CGAGGCCA: -0.301
CGTCAGTA: 0.0335
CGACAATC: -0.129
AATCAGGG: -0.047
CCGCTGTC: -0.277
ACTGCTGC: -0.206
CTTGGTCC: -0.221
GCCATGAC: -0.0953
ATTTATTC: 0.365
AAGCAGGA: -0.0126
AGGTTTAG: -0.0948
GTATACTA: 0.14
CAAGGAAG: -0.062
GGCTATAA: 0.217
GATTGCGA: -0.00423

Series 2 — method: DHFR PCA, deep sequencing; matrix: yeast; added: (+)-ABA 2500 µM; reference: wild-type fitted maximum; reading: higher = stronger binding; measurement: relative binding score
Target: ABI1, truncated, D143A, DHFR fusion (Arabidopsis thaliana)
Setting: methotrexate growth selection, single substitutions
Parent: PYL1, truncated, DHFR fusion (Arabidopsis thaliana); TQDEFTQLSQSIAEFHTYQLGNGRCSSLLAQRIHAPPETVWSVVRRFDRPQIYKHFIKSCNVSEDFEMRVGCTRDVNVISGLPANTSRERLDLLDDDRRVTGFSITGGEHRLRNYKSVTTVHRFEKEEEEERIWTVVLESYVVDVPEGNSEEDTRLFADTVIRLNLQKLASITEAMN; partner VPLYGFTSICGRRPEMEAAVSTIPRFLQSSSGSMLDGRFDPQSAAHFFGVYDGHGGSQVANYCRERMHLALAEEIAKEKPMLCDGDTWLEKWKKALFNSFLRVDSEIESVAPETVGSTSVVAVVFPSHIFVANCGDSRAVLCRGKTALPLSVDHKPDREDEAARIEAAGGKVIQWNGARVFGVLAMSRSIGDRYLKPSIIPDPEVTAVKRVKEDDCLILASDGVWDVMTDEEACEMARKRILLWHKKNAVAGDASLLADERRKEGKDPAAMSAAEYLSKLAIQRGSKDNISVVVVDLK
V44N: 17.1%
E174L: 89.4%
V142F: 88.9%
Y115V: -3.44%
K126E: 111%
T73I: 99.8%
H122M: 82.1%
Y18H: 89.3%
S9R: 104%
T17P: 95.5%
C72Y: 95.8%
D159F: 40.5%
P50S: 28.5%
G148F: 84.6%
R24Y: 93%
R113P: 89.3%
A170K: 99.7%
N61A: 99.2%
K168I: 92.1%
L91W: 80.3%
S150G: 91%
V40I: 87.2%
V143P: 1.49%

Series 3 — target: JUN, bZIP domain (human); method: DHFR protein complementation; matrix: yeast; reference: wild-type JUN-FOS pair; reading: higher = stronger binding; measurement: binding fitness
Setting: single substitutions, most at no-binding floor
Parent: JUN, bZIP domain (human); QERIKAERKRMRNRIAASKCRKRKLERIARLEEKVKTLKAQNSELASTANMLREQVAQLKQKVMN; partner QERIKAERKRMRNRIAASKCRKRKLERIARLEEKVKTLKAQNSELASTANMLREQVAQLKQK
S43Q: -0.0562 natural log
A46F: -0.5 natural log
E32L: -0.376 natural log
Q55S: -0.893 natural log
E33N: -0.359 natural log
L38M: -0.935 natural log
A49W: -1.15 natural log
K39S: -0.176 natural log
N42V: -1.18 natural log
E33S: -0.368 natural log
K39T: -0.0088 natural log
T48Y: -0.394 natural log
E44M: -0.217 natural log
M51D: -0.0816 natural log
R30A: 0.00879 natural log
E54T: -0.448 natural log
S47K: 0.0278 natural log
A49R: -0.818 natural log

Series 4 — method: RNA Bind-n-Seq; molecule type: RNA; matrix: in vitro; concentration: 365 nM; reference: no-protein control; reading: higher = stronger binding; measurement: RBNS enrichment (R)
Target: RNA binding protein fox-1 homolog 2, RRM domain, GST-SBP tag (RBFOX2, Homo sapiens, UniProt O43251-10, residues 100-194)
Setting: natural RNA segment, single round, ends assumed
Shared flanks, not repeated: GGGAGUUCUACAGUCCGACGAUC … UGGAAUUCUCGGGUGCCAA
Residues (chain): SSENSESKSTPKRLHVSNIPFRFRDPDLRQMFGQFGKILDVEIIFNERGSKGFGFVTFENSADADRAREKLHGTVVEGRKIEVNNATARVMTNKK
UUUGCUGUGGGCAUCUGUAGAUUUCUCGAUCUCGUUAGAUUGCAGGCAUCUUGACAUCUUGGCAACUGCCUAGUUAAUGCCAGUGGCCUGUACCAUAUUAUGGAAAACUG: 0.3
AAGAACAGAGAUGACAAAAGACCACUUGAAGAGAGGUUCCUAAUACUAGACAGAUGGAGAGUGGCUUGGCUGUUUCCCCCUGCAUAUUGGGGUUGAAAACUUAAAUGUGU: 0.686
GCCUUUCCUCUGGCCCUGCUGCCCCCACACCCAACUCCGAGGGCCCACGCUGGGGAAAGCGGGAAGCGCUCGCUCCCUUUCCCCCAUUAGUGCUCUCUCUGCCUGGAUCC: 0.325
CAAAGAAGCAAGACGAGCCAGGUUACUGACAUAAUCUUUAUGACAUGUGUACUGCAGUUGUGCCUUUUCUACAACACUGCAUUGAAUAAACUUGUCCGAAGUAUCGUUUU: 0.273
UCUGUUCUCAGAGACUCACCCCCAGCCCUGACCCUAGAAUUUAGGGAUAGCCAGGAAGUUUCUAGUUUGUGUAACCUAGAAGGGUCACUUUAAUAAAAAUUGUUAUGAAC: 0.347
UCCACCCACAGUCCCUUCCCUGUGCACCCUGCUUUGUCCCCUGCCUUGUCCCCUGCUCUCUCUUCUACCUACCUGCCUACCCCUGCAGAUCCUGUGGGCAGACACCUUAC: 2.27
CUCAAAGCUUAUUUGAGUAGAAUGGGCUCAUGGGCAAUGUGAUGUUCCCUGUUAACCUUCUGUUACUCCCUGGGAGAAAGGCGCUGAGCGUGGCAUGCAGGUGUCUUUGC: 1.35
ACUUGGACACAGGUUUCAGCUGGCCCCAGCCCAGAAGUGACCCCCAGAAAGGGAGGGCCACCGCUUUGCCCCCUGCUUUUACCCUUCCUUCUGGGUGCUCUACACCUCAG: 0.294

Series 5 — target: CCNF, cyclin fold, Cln2 fusion (human); method: yeast growth competition, sequencing; matrix: yeast; setting: strong parent motif; reference: not given; reading: higher = stronger binding; measurement: normalised enrichment score
Parent: PKMYT1 docking peptide (human); SFEPRNLLSLFED
SFGPRNLLSLFED [E3G]: 1.21
SFEPRNLLSLFHD [E12H]: 0.192
SFEPRRLLSLFED [N6R]: 1.58
SFEPRNLLSLFEG [D13G]: 2.04
SFEKRNLLSLFED [P4K]: 0.197
QFEPRNLLSLFED [S1Q]: 0.89
SFEPRNLLSWFED [L10W]: 0.559
SFEPRNLLSLKED [F11K]: -0.0301
SFEPRNLLTLFED [S9T]: -0.196
SFEARNLLSLFED [P4A]: 0.201
SFEPKNLLSLLED [R5K F11L]: -0.0325
SFEPRFLLSLFED [N6F]: -0.369
SFEPPNLLSLFED [R5P]: -0.621
SFNPRNLLSLFED [E3N]: -0.19
SFEPRNLLSLFEK [D13K]: 0.648
SFEPRNLLYLFED [S9Y]: 1.33

Excerpt of the above (series 2):
T17P: 95.5%
G148F: 84.6%
L91W: 80.3%
D159F: 40.5%
K126E: 111%
V143P: 1.49%
Y115V: -3.44%
K168I: 92.1%
A170K: 99.7%
H122M: 82.1%
S150G: 91%
S9R: 104%
